Measured values collected from several papers.
Compare with care: the assays were run in different laboratories. “And” joins repeats or separate records; there may be more than shown. ± gives the spread as reported. Converted amounts (≈) assume the structure as drawn.
DRD4: D(4) dopamine receptor (DRD4, Homo sapiens, UniProt P21917)
UniProt P21917, sequence (whole entry, looked up): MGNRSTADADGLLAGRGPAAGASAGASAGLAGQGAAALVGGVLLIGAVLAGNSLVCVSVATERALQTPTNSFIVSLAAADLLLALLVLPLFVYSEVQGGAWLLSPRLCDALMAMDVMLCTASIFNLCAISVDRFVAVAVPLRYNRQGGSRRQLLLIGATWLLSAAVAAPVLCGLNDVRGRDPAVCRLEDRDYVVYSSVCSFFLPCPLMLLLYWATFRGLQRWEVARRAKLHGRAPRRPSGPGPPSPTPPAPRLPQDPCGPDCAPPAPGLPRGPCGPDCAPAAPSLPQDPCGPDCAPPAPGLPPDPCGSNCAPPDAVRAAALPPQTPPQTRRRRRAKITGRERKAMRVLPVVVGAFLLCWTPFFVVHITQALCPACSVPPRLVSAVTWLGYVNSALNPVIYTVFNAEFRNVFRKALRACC

| Compound | target or system | assay | system | conditions | scale | endpoint | result |
| --- | --- | --- | --- | --- | --- | --- | --- |
| FC(F)(F)c1cccc(CNc2nc(NC3CCN(Cc4ccccc4)CC3)c3nc[nH]c3n2)c1 | Cryptococcus neoformans | RNA-seq, refers to: CNAG_06065 mRNA |  | 48 µg/mL, 3 h | baseline: untreated wild type | log2 fold change | -0.892 |
| COC1CN([C@H]2CC[C@H]([C@@]3(C)Oc4c(Cl)cc(C(=O)NCc5c(SC)cc(C)[nH]c5=O)c(C)c4O3)CC2)C1 |  | RNA-seq, refers to: PHLDA1 | human, whole blood | dose not given, 24 h | baseline: pretreatment baseline | log2 fold change | 1.16 |
| OC(Cn1cncn1)(Cn1cc(-[c-]2cccc2)nn1)c1ccc(F)cc1F.[Cl-].[Co+3].c1cc[cH-]c1 (racemic) | Brugia pahangi | motility, Worminator | adult female | 50 µM, 1 d |  | inhibition | 16% |
| CC(C)(C)NCC(SS(=O)(=O)O)c1ccccc1 (stereo not drawn) | Schistosoma mansoni |  | infected mice | 400 mg/kg single, day 42, perfusion day 56 | baseline: vehicle | male worm burden reduction | 74% |
| OC(CNc1cccc(Cl)c1)CN1c2ccccc2Sc2ccccc21 (stereo not drawn) | HIV-1 | cytopathicity, XTT | CEM-SS, RF | 6 days |  | EC50 | > 10000 nM |
| CC(=O)O[C@@H]1[C@@H](OC(C)=O)[C@H](Sc2sc(C(=O)c3ccc(Br)cc3)c(N)c2-c2nc3ccccc3s2)OC[C@@H]1OC(C)=O | hepatitis A virus | plaque reduction | HM 175 | non-toxic dose NG, mean over three titres |  | viral reduction | 20% |
| O=C(NCC(O)(Cn1cncn1)c1ccc(F)cc1F)[c-]1cccc1.[Cl-].[Co+3].c1cc[cH-]c1 (racemic) | Brugia pahangi | motility, Worminator | adult female | 50 µM, 0 d |  | inhibition | 0% |
| Cn1ncc2cc(CN3CCC(F)(F)C(COc4ccc(C#N)cc4)C3)ccc21 (stereo not drawn) | DRD4 | ligand displacement, radioligand |  | cell membranes |  | Ki | 8.9 nM |
| [2H]C([2H])([2H])C1(C([2H])([2H])[2H])NC(=O)N(c2ccc(F)c(C(C)(F)F)c2)C1=O | Schistosoma mansoni |  | juvenile stage, infected mice | oral, single dose |  | ED50 | 18 mg/kg |
| CC(C)C[C@H](NC(=O)[C@@H](CCCCNC(=O)[C@@H](Cc1ccccc1)NC(=O)CCCCCNC(=O)CN1CCN(CC(=O)O)CCN(CC(=O)O)CCN(CC(=O)O)CC1)NC(=O)[C@H](Cc1ccc(O)cc1)NC(=O)[C@H](CO)NC(=O)[C@H](Cc1c[nH]c2ccccc12)NC(=O)[C@H](Cc1c[nH]cn1)NC(=O)[C@@H]1CCC(=O)N1)C(=O)N[C@@H](CCCNC(=N)N)C(=O)N1CCC[C@H]1C(=O)NCC(N)=O [indium-111 labelled] |  |  | female athymic nude mice, muscle | intravenous, 0.037 MBq, 2 h |  | tissue uptake | 0.04 ± 0.01 %ID/g |
| CN(C(=O)[C@H](Cc1ccccc1)NC(=O)Cc1c[nH]c2ccc(O)cc12)c1ccccc1 | HIV-1 | infectivity of progeny virus | HEK293FT, NL4-3 |  |  | EC50 | 380 ± 70 nM |
| C=C(NC(=O)c1csc(-c2nc3c(cc2O)-c2nc(cs2)C(=O)NC(C(C)O)C(=O)NC(=C(C)OC)c2nc(cs2)C(=O)NC2c4nc(cs4)C(=O)NC(COC(=O)c4c5c6c(cccc6n4O)COC(=O)C(OC4CC(C)(O)C(N(C)C)C(C)O4)C2OC5)c2nc-3cs2)n1)C(N)=O (stereo not drawn) | Streptococcus pneumoniae |  | -25, immunocompromised mice, lung | 8 mg/kg/day once daily, 24 h post-dose |  | lung bacterial load | 4.4 log10 CFU/lung |
| CC1=C(Cn2cc(CN3CCC(=O)CC3)nn2)C(=O)c2ccccc2C1=O | Schistosoma mansoni |  | adult worms | 10 µM, 24 h |  | killing | 35.1% |
| C=C[C@]1(C)C[C@@H](OC(=O)CSc2ccc(NC(=O)c3ccco3)cc2)[C@]2(C)[C@H](C)CC[C@]3(CCC(=O)[C@H]32)[C@@H](C)[C@@H]1O | Mycoplasma gallisepticum |  | infected chickens, lung | intramuscular, 60 mg/kg daily x3, 72 h | baseline: 0 h | lung mycoplasma load reduction | 1.75 log10 CFU/mL and 1.56 log10 CFU/mL and 3.01 log10 CFU/mL and 2.92 log10 CFU/mL and 2.48 log10 CFU/mL and 2.22 log10 CFU/mL and 2.23 log10 CFU/mL and 4.03 log10 CFU/mL |
| COc1ccc(C2=Nc3cc(OC)c(OC)cc3C(c3ccccc3)N2C2CCN(Cc3ccccc3)CC2)cc1 (racemic) | Naegleria fowleri |  | ATCC 30215 | concentration not given |  | growth inhibition | inactive |
| CCn1c(C)c(CC(=O)N[C@@H](Cc2ccccc2)C(=O)N(C)c2ccc(F)cc2)c2ccccc21 | HIV-1 | infectivity of progeny virus | HEK293FT, NL4-3 |  |  | EC50 | 540 ± 30 nM |
| CN1CCCNC(=O)c2cccc(c2)C(=O)NCCCN(C)CCCNc2cccc3c2C(=O)c2cccc(c2C3=O)NCCC1 | SAS | RNA-Seq, refers to: PNN mRNA |  | 1 µM, 24 h | baseline: untreated cells | log2 fold change | 0.193 |
| CCCCCCCCCC(=O)N[C@@H](Cc1c[nH]c2ccccc12)C(=O)N[C@H](CC(N)=O)C(=O)N[C@@H](CC(=O)O)C(=O)N[C@@H]1C(=O)NCC(=O)N[C@@H](CCCNC(=O)OC2/C=C/CCCCC2)C(=O)N[C@@H](CC(=O)O)C(=O)N[C@H](C)C(=O)N[C@@H](CC(=O)O)C(=O)NCC(=O)N[C@H](CO)C(=O)N[C@@H]([C@H](C)CC(=O)O)C(=O)N[C@@H](CC(=O)c2ccccc2N)C(=O)O[C@@H]1C (stereo partly drawn) | Staphylococcus aureus | isothermal microcalorimetry | MRSA | 2.5 µg/mL, 24 h, 37 °C |  | peak heat flow | 0 µW |
| C#CCNC(=O)C1(O/N=C(\C(=O)N[C@@H]2C(=O)N(OS(=O)(=O)O)C2(C)C)c2csc(N)n2)CC1 | Proteus mirabilis | agar dilution | ATCC 49565 susceptible |  |  | MIC | 0.25 µg/mL (≈ 0.499 µM) |
| CNS(=O)(=O)Nc1nccc(Cc2c(C)c3ccc(Oc4ncccc4F)cc3oc2=O)c1F | HCC1395 | cell viability |  | 7 days |  | IC50 | > 1000 nM |
| CC(C)C[C@@H](NC(=O)[C@@H](CC(C)C)NC(=O)[C@@H](CC(=O)O)NC(=O)[C@@H](CC(C)C)NC(=O)[C@@H](CC(C)C)NC(=O)[C@@H](CC(C)C)NC(=O)[C@H](NC(=O)[C@@H](CC(=O)O)NC(=O)[C@H](NC(=O)[C@H]1CCCN1C(=O)[C@@H](Cc1ccccc1)NC(=O)[C@@H](CC(C)C)NC(=O)[C@@H](CC(C)C)NC(=O)[C@@H](CC(=O)O)NC(=O)[C@@H](CC(C)C)NC(=O)[C@@H](Cc1ccc(O)cc1)NC(=O)[C@@H](C)NC(=O)[C@@H](CCCNC(=N)N)NC(=O)[C@@H](Cc1c[nH]c2ccccc12)NC(=O)[C@H]1CCCN1C(=O)[C@@H](CC(N)=O)NC(=O)[C@@H](CCC(N)=O)NC(=O)[C@@H](CC(=O)O)NC(=O)[C@@H](CC(=O)O)NC(=O)[C@@H](CSC1CC(=O)N(CCNC(=O)CN2CCN(CC(=O)O)CCN(CC(=O)O)CC2)C1=O)NC(=O)[C@@H](C)N)[C@H](C)O)[C@H](C)O)C(=O)N[C@H](Cc1c[nH]c2ccccc12)C(=O)O (stereo partly drawn) [copper-64 labelled] |  |  | C57BL/6 mice, female, B16-F10 melanoma, blood | intravenous, 14.5 h |  | tissue uptake | 12 %ID/g |
| Cc1ncsc1-c1ccc(C(C)NC(=O)C2CC(O)CN2C(=O)C(NC(=O)CCCCCCCCCCN2CCCC(Nc3ncc(Cl)c(Nc4ccccc4S(=O)(=O)C(C)C)n3)C2)C(C)(C)C)cc1 (stereo not drawn) | 22Rv1 | RNA-seq, refers to: PTCH2 mRNA |  | concentration not given | baseline: DMSO | log2 fold change | -2.33 |
| CC(=O)OC[C@H]1O[C@@H](Sc2sc(C(=O)c3ccc(Cl)cc3)c(N)c2-c2nc3ccccc3s2)[C@H](OC(C)=O)[C@@H](OC(C)=O)[C@H]1OC(C)=O | hepatitis A virus | plaque reduction | HM 175 | non-toxic dose NG, mean over three titres |  | viral reduction | 13.3% |
| N#Cc1ccc(OCC2CN(Cc3ncn4ccccc34)CCC2(F)F)cc1F (stereo not drawn) | DRD4 | ligand displacement, radioligand |  | cell membranes |  | Ki | 21 nM and 21.3 nM |

Some of these lines once more:
| Compound | target or system | assay | system | conditions | scale | endpoint | result |
| --- | --- | --- | --- | --- | --- | --- | --- |
| C=C[C@]1(C)C[C@@H](OC(=O)CSc2ccc(NC(=O)c3ccco3)cc2)[C@]2(C)[C@H](C)CC[C@]3(CCC(=O)[C@H]32)[C@@H](C)[C@@H]1O | Mycoplasma gallisepticum |  | infected chickens, lung | intramuscular, 60 mg/kg daily x3, 72 h | baseline: 0 h | lung mycoplasma load reduction | 1.75 log10 CFU/mL and 1.56 log10 CFU/mL and 3.01 log10 CFU/mL and 2.92 log10 CFU/mL and 2.48 log10 CFU/mL and 2.22 log10 CFU/mL and 2.23 log10 CFU/mL and 4.03 log10 CFU/mL |
